Assay results of several laboratories.
Each numbered part is a random draw from the data of one study; scales do not carry over between parts. Substitutions count along the parent as printed.
Sequence of UniProt Q13237 (whole entry, looked up): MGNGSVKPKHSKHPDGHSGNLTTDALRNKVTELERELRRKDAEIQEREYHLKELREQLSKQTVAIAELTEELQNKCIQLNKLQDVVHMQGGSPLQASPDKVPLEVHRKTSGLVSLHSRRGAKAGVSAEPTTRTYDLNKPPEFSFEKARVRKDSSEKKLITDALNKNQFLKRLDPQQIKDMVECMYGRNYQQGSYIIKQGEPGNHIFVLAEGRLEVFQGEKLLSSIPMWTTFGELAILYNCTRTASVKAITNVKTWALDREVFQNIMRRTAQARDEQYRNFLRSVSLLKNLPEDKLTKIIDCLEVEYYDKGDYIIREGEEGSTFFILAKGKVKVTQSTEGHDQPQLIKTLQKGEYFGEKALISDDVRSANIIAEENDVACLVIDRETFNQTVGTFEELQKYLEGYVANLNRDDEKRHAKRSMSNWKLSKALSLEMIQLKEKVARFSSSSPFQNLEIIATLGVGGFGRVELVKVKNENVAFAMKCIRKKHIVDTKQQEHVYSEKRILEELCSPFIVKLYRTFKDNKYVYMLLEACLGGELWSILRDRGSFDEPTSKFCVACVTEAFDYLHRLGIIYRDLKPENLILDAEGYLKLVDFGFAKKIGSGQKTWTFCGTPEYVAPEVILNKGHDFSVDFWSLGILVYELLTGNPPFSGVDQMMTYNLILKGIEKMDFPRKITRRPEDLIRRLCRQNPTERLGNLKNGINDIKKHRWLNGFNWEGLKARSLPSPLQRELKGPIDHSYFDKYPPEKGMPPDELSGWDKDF
Sequence of UniProt Q8WXR4 (whole entry, looked up): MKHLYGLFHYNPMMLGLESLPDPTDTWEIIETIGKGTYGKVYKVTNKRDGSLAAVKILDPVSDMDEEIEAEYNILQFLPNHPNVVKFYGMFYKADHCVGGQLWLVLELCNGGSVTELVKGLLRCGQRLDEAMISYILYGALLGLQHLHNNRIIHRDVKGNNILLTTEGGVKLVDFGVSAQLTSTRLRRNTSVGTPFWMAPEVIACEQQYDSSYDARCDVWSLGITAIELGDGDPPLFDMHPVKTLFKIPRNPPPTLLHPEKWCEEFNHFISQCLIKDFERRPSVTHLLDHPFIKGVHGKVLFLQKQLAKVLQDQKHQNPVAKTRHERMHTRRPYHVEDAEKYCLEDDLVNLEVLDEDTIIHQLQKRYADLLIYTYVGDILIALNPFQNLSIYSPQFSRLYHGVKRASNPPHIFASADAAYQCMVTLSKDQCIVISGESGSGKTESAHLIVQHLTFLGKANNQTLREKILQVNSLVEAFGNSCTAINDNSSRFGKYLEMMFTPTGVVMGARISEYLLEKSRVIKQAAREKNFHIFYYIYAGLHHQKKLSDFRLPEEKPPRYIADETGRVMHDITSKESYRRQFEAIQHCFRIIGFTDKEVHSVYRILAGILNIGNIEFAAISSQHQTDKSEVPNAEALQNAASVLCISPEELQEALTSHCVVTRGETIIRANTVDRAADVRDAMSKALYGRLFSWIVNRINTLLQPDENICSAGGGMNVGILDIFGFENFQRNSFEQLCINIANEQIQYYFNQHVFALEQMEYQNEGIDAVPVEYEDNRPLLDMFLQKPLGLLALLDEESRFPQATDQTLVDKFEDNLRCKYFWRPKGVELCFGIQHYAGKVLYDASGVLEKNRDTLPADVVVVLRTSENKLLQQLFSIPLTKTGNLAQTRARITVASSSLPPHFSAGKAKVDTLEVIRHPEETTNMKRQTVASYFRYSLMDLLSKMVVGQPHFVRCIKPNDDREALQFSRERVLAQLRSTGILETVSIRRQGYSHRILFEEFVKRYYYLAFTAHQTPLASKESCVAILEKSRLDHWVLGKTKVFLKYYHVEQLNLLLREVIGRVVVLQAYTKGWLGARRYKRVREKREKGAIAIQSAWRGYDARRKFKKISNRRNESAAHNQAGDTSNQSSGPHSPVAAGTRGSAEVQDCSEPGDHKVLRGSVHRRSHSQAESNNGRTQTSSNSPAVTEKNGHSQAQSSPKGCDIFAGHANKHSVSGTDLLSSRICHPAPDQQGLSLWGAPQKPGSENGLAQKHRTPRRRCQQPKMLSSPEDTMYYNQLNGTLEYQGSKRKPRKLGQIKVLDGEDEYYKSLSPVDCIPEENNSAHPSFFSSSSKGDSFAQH
Sequence of UniProt Q8WU08 (whole entry, looked up): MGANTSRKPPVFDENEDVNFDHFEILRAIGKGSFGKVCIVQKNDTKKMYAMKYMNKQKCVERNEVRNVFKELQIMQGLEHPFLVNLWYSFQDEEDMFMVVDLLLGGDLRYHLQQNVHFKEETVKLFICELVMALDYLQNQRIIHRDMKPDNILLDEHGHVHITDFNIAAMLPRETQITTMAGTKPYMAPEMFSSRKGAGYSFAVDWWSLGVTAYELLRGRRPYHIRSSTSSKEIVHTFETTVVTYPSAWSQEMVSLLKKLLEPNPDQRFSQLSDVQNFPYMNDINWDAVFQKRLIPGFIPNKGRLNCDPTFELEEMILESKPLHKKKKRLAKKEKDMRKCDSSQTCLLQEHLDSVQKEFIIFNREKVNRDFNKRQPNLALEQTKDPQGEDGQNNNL
Sequence of UniProt P16591 (whole entry, looked up): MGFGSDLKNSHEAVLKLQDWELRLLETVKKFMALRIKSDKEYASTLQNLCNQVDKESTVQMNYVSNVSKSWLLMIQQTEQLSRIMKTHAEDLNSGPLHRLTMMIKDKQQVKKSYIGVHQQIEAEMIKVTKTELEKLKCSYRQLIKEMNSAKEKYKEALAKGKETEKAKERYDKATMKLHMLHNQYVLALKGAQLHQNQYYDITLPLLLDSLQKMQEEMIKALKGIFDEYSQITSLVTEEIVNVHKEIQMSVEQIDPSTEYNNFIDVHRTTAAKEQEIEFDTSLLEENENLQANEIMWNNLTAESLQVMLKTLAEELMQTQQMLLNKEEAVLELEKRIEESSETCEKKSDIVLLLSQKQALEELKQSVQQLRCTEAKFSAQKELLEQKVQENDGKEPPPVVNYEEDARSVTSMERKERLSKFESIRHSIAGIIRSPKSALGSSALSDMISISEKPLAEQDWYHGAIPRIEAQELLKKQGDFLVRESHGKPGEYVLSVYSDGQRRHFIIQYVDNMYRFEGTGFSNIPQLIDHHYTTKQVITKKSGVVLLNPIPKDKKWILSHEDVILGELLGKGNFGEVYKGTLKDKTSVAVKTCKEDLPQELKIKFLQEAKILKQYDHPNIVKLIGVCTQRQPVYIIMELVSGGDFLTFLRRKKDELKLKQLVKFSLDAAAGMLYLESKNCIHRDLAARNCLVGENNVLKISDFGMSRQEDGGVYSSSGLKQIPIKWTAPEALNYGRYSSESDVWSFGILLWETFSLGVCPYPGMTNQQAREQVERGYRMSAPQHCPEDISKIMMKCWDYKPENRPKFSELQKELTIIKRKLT
Sequence of UniProt Q9Y5S2 (whole entry, looked up): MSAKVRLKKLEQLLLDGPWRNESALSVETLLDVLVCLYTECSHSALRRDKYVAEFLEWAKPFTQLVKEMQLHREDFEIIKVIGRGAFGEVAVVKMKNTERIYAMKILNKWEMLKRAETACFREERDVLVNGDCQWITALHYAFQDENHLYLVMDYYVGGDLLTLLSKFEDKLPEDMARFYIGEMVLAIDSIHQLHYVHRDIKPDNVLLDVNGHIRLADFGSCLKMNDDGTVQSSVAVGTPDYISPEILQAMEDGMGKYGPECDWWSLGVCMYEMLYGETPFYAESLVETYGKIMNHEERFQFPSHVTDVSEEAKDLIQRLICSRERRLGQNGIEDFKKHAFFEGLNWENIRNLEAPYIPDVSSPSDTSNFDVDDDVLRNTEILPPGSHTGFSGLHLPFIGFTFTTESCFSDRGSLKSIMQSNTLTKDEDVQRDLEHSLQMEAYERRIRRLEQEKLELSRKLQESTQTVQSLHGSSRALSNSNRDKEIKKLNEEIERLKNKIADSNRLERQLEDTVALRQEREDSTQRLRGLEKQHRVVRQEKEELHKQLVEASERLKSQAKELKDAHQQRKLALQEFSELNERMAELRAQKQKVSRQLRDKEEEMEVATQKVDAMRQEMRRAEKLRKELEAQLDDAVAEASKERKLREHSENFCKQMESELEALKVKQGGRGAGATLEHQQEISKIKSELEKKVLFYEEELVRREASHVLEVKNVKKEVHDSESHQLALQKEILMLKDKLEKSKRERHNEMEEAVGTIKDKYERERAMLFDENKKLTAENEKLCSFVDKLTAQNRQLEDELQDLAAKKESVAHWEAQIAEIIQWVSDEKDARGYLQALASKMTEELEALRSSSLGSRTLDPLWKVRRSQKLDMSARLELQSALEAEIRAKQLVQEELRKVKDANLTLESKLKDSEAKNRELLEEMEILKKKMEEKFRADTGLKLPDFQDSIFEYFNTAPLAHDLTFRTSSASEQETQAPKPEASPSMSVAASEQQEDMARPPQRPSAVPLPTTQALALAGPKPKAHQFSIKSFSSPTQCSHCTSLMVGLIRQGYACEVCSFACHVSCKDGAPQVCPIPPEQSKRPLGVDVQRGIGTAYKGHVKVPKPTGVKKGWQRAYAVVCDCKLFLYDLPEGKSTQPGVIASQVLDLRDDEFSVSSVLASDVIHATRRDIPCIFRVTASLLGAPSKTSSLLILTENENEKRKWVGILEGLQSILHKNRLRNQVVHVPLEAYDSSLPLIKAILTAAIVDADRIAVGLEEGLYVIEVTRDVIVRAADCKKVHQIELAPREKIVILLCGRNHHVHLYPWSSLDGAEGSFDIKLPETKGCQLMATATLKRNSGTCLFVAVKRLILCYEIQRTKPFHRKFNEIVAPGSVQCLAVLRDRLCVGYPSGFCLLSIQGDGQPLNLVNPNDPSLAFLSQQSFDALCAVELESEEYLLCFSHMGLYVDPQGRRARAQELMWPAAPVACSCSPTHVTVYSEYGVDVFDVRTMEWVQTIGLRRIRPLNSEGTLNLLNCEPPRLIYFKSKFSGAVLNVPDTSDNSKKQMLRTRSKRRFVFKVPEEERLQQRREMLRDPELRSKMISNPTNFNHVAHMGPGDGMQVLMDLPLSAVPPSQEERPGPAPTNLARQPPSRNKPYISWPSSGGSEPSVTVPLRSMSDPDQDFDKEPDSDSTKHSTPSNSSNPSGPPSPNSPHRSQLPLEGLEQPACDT

Sample 1 — SMILES: Cn1nc2c3c(cccc31)C(=O)c1ccccc1-2; effect on: enzyme activity; action: inhibitor; concentration: 0.5 µM; relative to: control
target | remaining activity
Cyclin-dependent kinase 9, with cyclin K (CDK9, Homo sapiens, UniProt P50750) | 96.5%
MAPK1 (Homo sapiens, UniProt P28482) | 91.7%
PRKG2 (Homo sapiens, UniProt Q13237) | 105%
RPS6KA4 (Homo sapiens, UniProt O75676) | 105%
Myosin-IIIb (MYO3B, Homo sapiens, UniProt Q8WXR4) | 97.7%
CDC42BPB (Homo sapiens, UniProt Q9Y5S2) | 98%
CLK4 (Homo sapiens, UniProt Q9HAZ1) | 69.8%
MINK1 (Homo sapiens, UniProt Q8N4C8) | 92.3%
NEK3 (Homo sapiens, UniProt P51956) | 96.7%
MARK4 (Homo sapiens, UniProt Q96L34) | 91.1%
DCLK2 (Homo sapiens, UniProt Q8N568) | 94.2%
MET (Homo sapiens, UniProt P08581) | 107%
ROCK1 (Homo sapiens, UniProt Q13464) | 98.4%

Sample 2 — target: CREBRF, bZIP domain (human); method: DHFR protein complementation; medium: yeast; relative to: wild-type JUN-FOS pair; reading: higher = stronger binding
Notes: single substitutions, most at no-binding floor
Starting sequence: JUN, bZIP domain (human); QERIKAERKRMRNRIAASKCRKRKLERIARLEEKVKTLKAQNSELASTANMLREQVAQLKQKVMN; partner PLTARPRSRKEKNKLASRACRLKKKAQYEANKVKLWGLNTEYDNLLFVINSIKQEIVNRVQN
Change | binding fitness [natural log]
L59F | -1.46
V35C | -1.58
K34M | -1.52
S43D | -1.45
A29T | -1.4
L52K | -1.44
R53T | -1.59
E44R | -1.38

Sample 3 — method: competition with immobilised ligand; concentration: 1 µM
Compound: O=C(Nc1ccc(Oc2ccc(F)cc2)cc1)N1CCc2ncccc2[C@H]1c1ccc(F)cc1
target | effect on | remaining binding [%]
PRKG2 (Homo sapiens, UniProt Q13237) | cell-free assay | 100
PAK1 (Homo sapiens, UniProt Q13153) | cell-free assay | 82
ACVR2A (Homo sapiens, UniProt P27037) | cell-free assay | 100
FER (Homo sapiens, UniProt P16591) | cell-free assay | 91
Tyrosine-protein kinase ABL1, phosphorylated (ABL1, Homo sapiens, UniProt P00519, Y253F) | cell-free assay | 82
WEE2 (Homo sapiens, UniProt P0C1S8) | cell-free assay | 100
DAPK3 (Homo sapiens, UniProt O43293) | cell-free assay | 100
CLK2 (Homo sapiens, UniProt P49760) | cell-free assay | 95
Aurora kinase A (AURKA, Homo sapiens, UniProt O14965) | cell-free assay | 100
INSRR (Homo sapiens, UniProt P14616) | cell-free assay | 94
VRK2 (Homo sapiens, UniProt Q86Y07) | cell-free assay | 97
Tyrosine-protein kinase ABL1, phosphorylated (ABL1, Homo sapiens, UniProt P00519) | cell-free assay | 100
Myosin-IIIb (MYO3B, Homo sapiens, UniProt Q8WXR4) | binding | 83
MAP2K6 (Homo sapiens, UniProt P52564) | cell-free assay | 100
EIF2AK2 (Homo sapiens, UniProt P19525) | cell-free assay | 100
STK32A (Homo sapiens, UniProt Q8WU08) | cell-free assay | 100
EGFR (Homo sapiens, UniProt P00533, A750P/del747-749) | cell-free assay | 92
PRKX (Homo sapiens, UniProt P51817) | cell-free assay | 88
CSNK1E (Homo sapiens, UniProt P49674) | cell-free assay | 85
FLT3 (Homo sapiens, UniProt P36888, D835V) | cell-free assay | 96

Mixed results
Substance | target | assay | system | conditions | how to read | quantity | value
PhoQ, residues 284 288 289 292 302 303 SVTLVV | PhoP, residues 12 14 15 18 19 TQAIL (Escherichia coli, UniProt P23836) | Sort-seq, item: YFP reporter | E. coli | PhoQ-PhoP variant library, with: 10 µM Mg2+ | relative to: high Mg2+ state, higher = stronger signaling | fold induction | 17.1

A few entries again (sample 1):
target | remaining activity
RPS6KA4 (Homo sapiens, UniProt O75676) | 105%
Myosin-IIIb (MYO3B, Homo sapiens, UniProt Q8WXR4) | 97.7%
CDC42BPB (Homo sapiens, UniProt Q9Y5S2) | 98%
